Measurements collected from several papers.
Every numbered part comes from another study and shows a few of its results, in no order.
Chain of UniProt Q15831 (whole entry, looked up): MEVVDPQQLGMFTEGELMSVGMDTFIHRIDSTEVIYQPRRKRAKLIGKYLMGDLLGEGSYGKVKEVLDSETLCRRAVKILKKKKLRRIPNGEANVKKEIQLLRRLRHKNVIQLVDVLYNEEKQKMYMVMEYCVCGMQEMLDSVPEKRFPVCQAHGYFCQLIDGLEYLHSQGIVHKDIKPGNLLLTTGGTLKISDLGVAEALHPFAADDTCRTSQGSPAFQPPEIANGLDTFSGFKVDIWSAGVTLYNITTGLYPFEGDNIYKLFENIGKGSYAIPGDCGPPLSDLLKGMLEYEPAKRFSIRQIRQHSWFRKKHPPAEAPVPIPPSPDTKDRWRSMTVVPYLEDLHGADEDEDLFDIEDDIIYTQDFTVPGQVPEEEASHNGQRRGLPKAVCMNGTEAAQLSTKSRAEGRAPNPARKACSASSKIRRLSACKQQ
Chain of UniProt O14920 (whole entry, looked up): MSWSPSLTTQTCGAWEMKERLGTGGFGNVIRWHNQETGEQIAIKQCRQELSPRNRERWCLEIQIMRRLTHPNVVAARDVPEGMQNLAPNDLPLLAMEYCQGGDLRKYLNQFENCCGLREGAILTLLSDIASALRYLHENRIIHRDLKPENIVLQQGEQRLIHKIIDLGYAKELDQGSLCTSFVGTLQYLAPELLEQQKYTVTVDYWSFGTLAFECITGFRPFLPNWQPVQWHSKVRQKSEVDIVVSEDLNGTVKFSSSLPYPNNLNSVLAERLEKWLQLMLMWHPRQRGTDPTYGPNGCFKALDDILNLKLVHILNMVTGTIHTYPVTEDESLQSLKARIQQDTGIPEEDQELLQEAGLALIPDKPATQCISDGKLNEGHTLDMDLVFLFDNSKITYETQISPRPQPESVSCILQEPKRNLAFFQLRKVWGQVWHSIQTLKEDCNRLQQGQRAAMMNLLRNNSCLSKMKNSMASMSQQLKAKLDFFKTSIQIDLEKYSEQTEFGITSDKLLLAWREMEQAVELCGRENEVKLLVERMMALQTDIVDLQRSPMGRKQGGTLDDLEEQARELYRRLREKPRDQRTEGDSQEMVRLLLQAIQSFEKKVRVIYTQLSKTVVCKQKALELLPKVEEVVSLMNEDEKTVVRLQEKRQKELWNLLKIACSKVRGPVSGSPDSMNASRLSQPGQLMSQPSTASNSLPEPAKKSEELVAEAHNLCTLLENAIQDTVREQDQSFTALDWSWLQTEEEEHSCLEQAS
Chain of UniProt P05771 (whole entry, looked up): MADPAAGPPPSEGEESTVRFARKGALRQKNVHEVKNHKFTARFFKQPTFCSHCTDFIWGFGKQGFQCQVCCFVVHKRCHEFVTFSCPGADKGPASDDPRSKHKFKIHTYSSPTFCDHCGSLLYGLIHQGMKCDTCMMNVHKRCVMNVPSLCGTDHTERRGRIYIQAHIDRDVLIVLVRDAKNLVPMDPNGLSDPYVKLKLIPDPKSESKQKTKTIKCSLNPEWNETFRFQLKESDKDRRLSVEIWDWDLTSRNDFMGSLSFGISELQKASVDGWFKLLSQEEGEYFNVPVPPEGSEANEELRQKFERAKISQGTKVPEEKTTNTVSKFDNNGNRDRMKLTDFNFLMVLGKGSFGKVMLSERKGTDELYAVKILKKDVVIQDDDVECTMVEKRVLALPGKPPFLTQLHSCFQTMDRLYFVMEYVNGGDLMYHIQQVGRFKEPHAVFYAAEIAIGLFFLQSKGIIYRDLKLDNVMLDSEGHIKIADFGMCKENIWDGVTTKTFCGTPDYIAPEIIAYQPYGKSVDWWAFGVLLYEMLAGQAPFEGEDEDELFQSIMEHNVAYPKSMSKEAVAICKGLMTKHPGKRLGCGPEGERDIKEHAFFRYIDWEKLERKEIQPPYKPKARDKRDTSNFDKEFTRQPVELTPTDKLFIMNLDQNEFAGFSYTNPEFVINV
Chain of UniProt Q96RR4 (whole entry, looked up): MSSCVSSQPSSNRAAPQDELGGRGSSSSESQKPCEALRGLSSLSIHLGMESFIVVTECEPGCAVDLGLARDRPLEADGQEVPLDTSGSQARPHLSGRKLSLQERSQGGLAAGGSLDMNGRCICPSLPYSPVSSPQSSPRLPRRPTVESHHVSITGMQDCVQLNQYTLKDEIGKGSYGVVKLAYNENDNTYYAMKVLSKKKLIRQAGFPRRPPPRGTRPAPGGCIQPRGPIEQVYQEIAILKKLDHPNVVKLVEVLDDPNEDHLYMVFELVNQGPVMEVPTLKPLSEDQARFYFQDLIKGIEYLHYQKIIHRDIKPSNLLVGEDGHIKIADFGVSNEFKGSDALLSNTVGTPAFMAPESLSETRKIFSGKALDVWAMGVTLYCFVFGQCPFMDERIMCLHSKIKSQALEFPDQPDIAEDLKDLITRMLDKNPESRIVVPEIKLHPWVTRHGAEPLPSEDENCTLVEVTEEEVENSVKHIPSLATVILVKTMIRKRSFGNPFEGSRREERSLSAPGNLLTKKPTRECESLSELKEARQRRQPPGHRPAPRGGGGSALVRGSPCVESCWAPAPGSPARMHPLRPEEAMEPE
Chain of UniProt P53355 (whole entry, looked up): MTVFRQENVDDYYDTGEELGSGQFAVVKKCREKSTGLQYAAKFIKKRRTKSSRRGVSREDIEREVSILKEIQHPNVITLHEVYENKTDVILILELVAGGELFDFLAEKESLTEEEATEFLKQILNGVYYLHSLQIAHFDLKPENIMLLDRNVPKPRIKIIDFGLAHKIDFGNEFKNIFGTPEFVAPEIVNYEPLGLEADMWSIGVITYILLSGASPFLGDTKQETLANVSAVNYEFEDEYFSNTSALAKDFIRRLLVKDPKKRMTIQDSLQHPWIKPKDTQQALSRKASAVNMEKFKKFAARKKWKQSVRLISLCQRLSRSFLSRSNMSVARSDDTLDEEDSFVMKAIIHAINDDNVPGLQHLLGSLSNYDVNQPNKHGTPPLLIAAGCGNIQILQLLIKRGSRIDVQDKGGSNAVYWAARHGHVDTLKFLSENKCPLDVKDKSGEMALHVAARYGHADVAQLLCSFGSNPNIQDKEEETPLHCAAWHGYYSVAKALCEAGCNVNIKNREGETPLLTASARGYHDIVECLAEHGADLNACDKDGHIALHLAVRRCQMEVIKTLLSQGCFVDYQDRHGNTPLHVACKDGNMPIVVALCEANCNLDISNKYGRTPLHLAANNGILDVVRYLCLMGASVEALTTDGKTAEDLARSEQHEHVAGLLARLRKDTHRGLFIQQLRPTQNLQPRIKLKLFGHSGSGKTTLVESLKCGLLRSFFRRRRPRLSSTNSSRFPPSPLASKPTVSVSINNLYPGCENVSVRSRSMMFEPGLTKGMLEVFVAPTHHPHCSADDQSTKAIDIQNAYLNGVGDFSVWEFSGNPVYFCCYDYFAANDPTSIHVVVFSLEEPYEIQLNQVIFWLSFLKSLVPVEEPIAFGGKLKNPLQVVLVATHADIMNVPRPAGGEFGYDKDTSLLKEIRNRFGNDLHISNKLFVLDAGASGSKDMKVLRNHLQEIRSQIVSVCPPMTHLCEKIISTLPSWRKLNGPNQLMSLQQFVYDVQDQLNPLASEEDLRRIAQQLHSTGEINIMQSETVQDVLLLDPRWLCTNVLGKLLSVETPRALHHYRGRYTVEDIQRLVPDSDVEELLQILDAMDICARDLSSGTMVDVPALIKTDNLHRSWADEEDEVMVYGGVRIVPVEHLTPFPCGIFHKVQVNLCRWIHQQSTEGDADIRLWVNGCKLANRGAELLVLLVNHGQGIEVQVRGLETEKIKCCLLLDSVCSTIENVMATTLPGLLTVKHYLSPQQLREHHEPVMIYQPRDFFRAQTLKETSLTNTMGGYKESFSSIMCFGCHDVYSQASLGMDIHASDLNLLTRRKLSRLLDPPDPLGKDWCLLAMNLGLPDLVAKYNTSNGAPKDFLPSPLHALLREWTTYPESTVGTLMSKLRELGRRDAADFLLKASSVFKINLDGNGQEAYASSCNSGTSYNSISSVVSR

Set 1
Structure (SMILES): c1cc(-c2cnn3cc(-c4ccc(OCCN5CCCCC5)cc4)cnc23)ccn1
Effect on: enzyme activity
Action: inhibitor
Concentration: 0.5 µM
Reference: control
Quantity: remaining activity
target = CAMKK2 (Homo sapiens, UniProt Q96RR4); value = 30.4%
target = STK11 (Homo sapiens, UniProt Q15831); value = 85.3%
target = IKBKB (Homo sapiens, UniProt O14920); value = 104%
target = CAMK2D (Homo sapiens, UniProt Q13557); value = 54.5%
target = STK10 (Homo sapiens, UniProt O94804); value = 41.8%
target = Protein kinase C beta type, isoform beta-I (PRKCB, Homo sapiens, UniProt P05771); value = 103%
target = DAPK1 (Homo sapiens, UniProt P53355); value = 89.6%
target = cGMP-dependent protein kinase 1, isoform beta (PRKG1, Homo sapiens, UniProt Q13976); value = 74%
target = MAP3K3 (Homo sapiens, UniProt Q99759); value = 102%
target = Cyclin-dependent kinase 5, with p25 (CDK5, Homo sapiens, UniProt Q00535); value = 68.2%
target = PRKACA (Homo sapiens, UniProt P17612); value = 81.2%
target = CHEK2 (Homo sapiens, UniProt O96017); value = 92.7%
target = PRKCA (Homo sapiens, UniProt P17252); value = 90.4%
target = OXSR1 (Homo sapiens, UniProt O95747); value = 99.4%
target = GRK3 (Homo sapiens, UniProt P35626); value = 93.3%
target = Tyrosine-protein kinase Lyn, isoform B (LYN, Homo sapiens, UniProt P07948); value = 67.7%
target = STK39 (Homo sapiens, UniProt Q9UEW8); value = 76.8%
target = IKBKE (Homo sapiens, UniProt Q14164); value = 71.9%
target = DAPK2 (Homo sapiens, UniProt Q9UIK4); value = 90.2%
target = NEK2 (Homo sapiens, UniProt P51955); value = 102%
target = TGFBR2 (Homo sapiens, UniProt P37173); value = 18.7%
target = Cyclin-dependent kinase 4, with cyclin D1 (CDK4, Homo sapiens, UniProt P11802); value = 35.3%
target = MAPK9 (Homo sapiens, UniProt P45984); value = 87.8%

Set 2
SMILES: CC(C)n1cnc(-c2ccc(F)cc2)c1-c1ncc(C(=O)Nc2ccc(N3CCN(C)CC3)cc2)[nH]1
Technique: phase 2a trial
Species: idiopathic pulmonary fibrosis patients
Quantity: patients with nausea
setting = all arms, grade 5 emergent event; value = 0%
setting = 60 mg once daily, grade 5 emergent event; value = 0%
setting = 30 mg once daily, grade 3 emergent event; value = 0%
setting = 30 mg once daily, grade 4 emergent event; value = 0%
setting = 60 mg once daily, grade 1 emergent event; value = 0%
setting = 30 mg once daily, grade 2 emergent event; value = 0%

Set 3
Organism: Sarcocystis neurona
Effect on: parasite growth
Concentration: 10 µM
Time: 96 h
Setting: secondary screen
Quantity: inhibition
SMILES = CCCN1C[C@H](CSC)C[C@@H]2c3cccc4[nH]cc(c34)C[C@H]21; value = -20.3%
SMILES = CN1CCC(=C2c3ccccc3CC(=O)c3sccc32)CC1; value = -41.9%
SMILES = CC(C(O)c1ccc(O)cc1)N1CCC(Cc2ccccc2)CC1 (stereo not drawn); value = -19.4%
SMILES = CO[C@@]1(NC(=O)Cc2cccs2)C(=O)N2C(C(=O)O)=C(COC(N)=O)CS[C@@H]21; value = -17.8%
SMILES = O=C(O)CCNC(=O)c1ccc(/N=N/c2ccc(O)c(C(=O)O)c2)cc1; value = -18.3%
SMILES = CC[N+](C)(C)c1cccc(O)c1; value = -14.9%
SMILES = CCOC(=O)N1CCC(=C2c3ccc(Cl)cc3CCc3cccnc32)CC1; value = -32.5%
SMILES = CN(CCOc1ccc(NS(C)(=O)=O)cc1)CCc1ccc(NS(C)(=O)=O)cc1; value = -18.6%
SMILES = Cc1onc(-c2ccccc2)c1-c1ccc(S(N)(=O)=O)cc1; value = -21.9%

Set 4
Target: Muscarinic acetylcholine receptor M2 (CHRM2, Homo sapiens, UniProt P08172)
Chain of UniProt P08172 (whole entry, looked up): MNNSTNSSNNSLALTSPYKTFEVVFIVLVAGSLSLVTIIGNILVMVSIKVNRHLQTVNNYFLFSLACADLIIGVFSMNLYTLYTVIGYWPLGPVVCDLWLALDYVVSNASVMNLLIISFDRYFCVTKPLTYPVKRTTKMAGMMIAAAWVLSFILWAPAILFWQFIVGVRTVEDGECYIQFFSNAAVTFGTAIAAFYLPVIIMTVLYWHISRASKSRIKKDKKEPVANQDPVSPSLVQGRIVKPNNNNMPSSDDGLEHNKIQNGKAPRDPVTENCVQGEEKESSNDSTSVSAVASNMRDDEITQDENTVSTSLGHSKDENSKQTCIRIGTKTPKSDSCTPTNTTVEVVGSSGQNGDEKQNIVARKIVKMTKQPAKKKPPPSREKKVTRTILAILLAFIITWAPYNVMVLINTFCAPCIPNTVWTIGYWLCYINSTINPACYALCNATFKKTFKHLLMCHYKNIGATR
Effect on: binding
Technique: radioligand binding
Concentration: 10 µM
Quantity: inhibition
SMILES = Cc1cc(-n2nc(Cc3cc(F)cc(C(F)(F)F)c3)nc2C)ccc1C(N)=O; value = 5.69%
SMILES = CC(=O)N1CCC(c2ccc(C(=O)NC(=N)N)cc2C(F)(F)F)CC1; value = 23.5%
SMILES = Nc1c(C(=O)NCc2ccc(C(=O)NCCCC3CCCCC3)cc2)cnn1-c1ccccc1; value = 22.5%
SMILES = COc1cc(-c2cn(C3CCc4ccccc4N(CC(F)(F)F)C3=O)nn2)ccc1-n1ccc(C)n1 (stereo not drawn); value = -13.6%
SMILES = COCCc1ccc(-c2c(C)nc3c(N4CCOCC4)ccnn23)cn1; value = 10.4%
SMILES = CCCOc1ccc([C@H]2[C@H](C(=O)O)[C@@H](c3ccc4c(c3)OCO4)CN2CC(=O)Nc2c(CC)cccc2CC)cc1; value = -5.3%
SMILES = O[C@]1(C(F)(F)F)CCCC[C@H]1Nc1ccc(F)cc1; value = -2.71%
SMILES = CC(C)(O)c1cncc(-c2nc3ccc(F)cc3n2C2CC2)c1; value = -0.1%
SMILES = Cc1c[nH]c2nccc(Oc3c(F)cc(Nc4cc(Cl)nc(N)n4)cc3F)c12; value = 7.41%
SMILES = O=C1c2ccc(Nc3ccc(F)cc3F)cc2CCc2ccc(OC[C@H](O)CO)cc21; value = 40%
SMILES = CCOCCn1cc(C(=O)Nc2ccc(-n3nc(-c4cccnc4)cc3C(F)(F)F)cn2)ccc1=O; value = -3%
SMILES = CN1C(=O)[C@@H](N2CCc3cn(Cc4ccccc4)nc3C2=O)COc2ccccc21; value = -4.37%
SMILES = Cc1c(NC(=O)c2cc(C(N)=O)nc3cc(F)ccc23)c(C(F)(F)F)nn1Cc1ccc(C(C)(C)C)cc1; value = 15.3%
SMILES = CC1=C(C#N)C(c2ccc3c(c2)c(NC(=O)c2ccccc2C)nn3C)C(C#N)=C(C)N1; value = -2.08%
SMILES = CNC(=O)Nc1ccc2c(c1)[C@]1(CC2)OC(=O)N(CC(=O)N(Cc2ccc(F)cc2)[C@@H](C)C(F)(F)F)C1=O; value = 3.15%
SMILES = O=C(Nc1ccc(-n2nc(-c3cccnc3)cc2C(F)(F)F)cn1)c1ccc(-c2ccccc2)c(F)c1; value = 9.94%
SMILES = Cc1cc(C)c(-n2ccn3nc(-c4cccnc4)cc23)cc1NC(=O)c1cc(C#N)cc(S(F)(F)(F)(F)F)c1; value = 10.5%
SMILES = O=C(NC[C@@H]1[C@H]2CN(C(=O)OCc3cc(C(F)(F)F)cc(C(F)(F)F)c3)C[C@@H]12)c1ccc2[nH]nnc2c1; value = 7.11%
SMILES = CC1=C(C#N)[C@@H](c2ccc3[nH]nc(C)c3c2)C(C#N)=C(c2ccc(Cl)cc2)N1; value = 18.8%
SMILES = O=C(Nc1cnc(Oc2ccc(F)cc2)nc1)N1CCc2ncccc2[C@@H]1c1ccc(F)cc1; value = -5.1%
SMILES = CS(=O)(=O)NCC[C@H](NC(=O)c1cncc2c1cnn2-c1ccc(F)cc1)c1ccnc(S(C)(=O)=O)c1; value = 17.4%
SMILES = COCc1nc2cnc3cc(-c4c(C)noc4C)c(OC[C@H]4CCNC4)cc3c2n1[C@H](C)c1ccccc1; value = 4.05%

Some of these lines once more (set 4):
SMILES = CN1C(=O)[C@@H](N2CCc3cn(Cc4ccccc4)nc3C2=O)COc2ccccc21; value = -4.37%
SMILES = Cc1c[nH]c2nccc(Oc3c(F)cc(Nc4cc(Cl)nc(N)n4)cc3F)c12; value = 7.41%
SMILES = CS(=O)(=O)NCC[C@H](NC(=O)c1cncc2c1cnn2-c1ccc(F)cc1)c1ccnc(S(C)(=O)=O)c1; value = 17.4%
SMILES = O=C(Nc1cnc(Oc2ccc(F)cc2)nc1)N1CCc2ncccc2[C@@H]1c1ccc(F)cc1; value = -5.1%
SMILES = CC(C)(O)c1cncc(-c2nc3ccc(F)cc3n2C2CC2)c1; value = -0.1%
